Measurements from different studies.
Protocols differ between the studies behind these lines. “And” joins repeats or separate records; there may be more than shown. Numbers after ± are the reported error.
Target: Cannabinoid receptor 2 (CNR2, Homo sapiens, UniProt P34972)
Sequence of UniProt P34972 (whole entry, looked up): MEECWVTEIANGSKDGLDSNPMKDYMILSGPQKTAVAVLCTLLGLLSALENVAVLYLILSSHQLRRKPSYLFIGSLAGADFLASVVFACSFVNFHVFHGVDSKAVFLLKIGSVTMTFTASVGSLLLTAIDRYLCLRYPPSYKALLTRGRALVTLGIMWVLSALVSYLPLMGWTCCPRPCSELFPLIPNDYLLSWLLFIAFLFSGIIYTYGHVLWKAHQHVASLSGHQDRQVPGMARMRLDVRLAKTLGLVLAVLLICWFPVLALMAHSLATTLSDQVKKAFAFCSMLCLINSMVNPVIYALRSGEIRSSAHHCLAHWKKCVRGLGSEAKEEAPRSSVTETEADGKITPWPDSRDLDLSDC

`Cc1cc(-c2ccc3ccccc3c2)nnc1NCCN1CCN(C)CC1`: antagonist activity “negative” (antagonist; concentration not given).
`CCCCCn1cc(C(=O)c2cccc3c2CC(C)(C)C3)c2ccccc21` has an Emax of 61.8 ± 3% (cAMP inhibition, agonist, CAMYEL BRET biosensor; added: forskolin 10 µM; relative to: reference agonist at wild type).
For `Cc1cc(Nc2nc(C[C@@]3(C(=O)O)CCN(Cc4cccc(Cl)c4F)[C@H](C)C3)cc(C)c2F)[nH]n1`, the inhibition was -6.12% (inhibitor; 10 µM).
The specific binding of `O=C(O)c1ccc(-c2nc(-c3ccccc3Cl)c3sccn23)cc1` is reported as 109% and 106% (radioligand binding, safety screen panel; 10 µM; relative to: control).
`C[C@H](NCc1ccc(-c2ccc(C(F)(F)F)cc2)cc1)C(N)=O` has an inhibition of 11% (radioligand binding; 1 µM, added: 2.40 nM [3H]WIN-55,212-2).
The EC50 ratio of `CCOC(=O)C(CC)(CC)NC(=O)c1ccc(C2CC2)c(Cc2ccc(F)cc2)n1` is reported as 6.3 (cAMP level; added: forskolin; relative to: CB1 over CB2 (human)).
`COC(=O)[C@@H](NC(=O)c1nn(Cc2ccc(F)cc2)c2cc(OCCCCNC(=N)N)ccc12)C(C)(C)C`: “Gi GTP turnover maximum” 61% (GTPase; relative to: FUB).
The Ki ratio of `CCOC(=O)[C@](CC)(CCCSCCOCCOCCNC(=O)c1ccc(-c2c3ccc(=N)c(S(=O)(=O)O)c-3oc3c(S(=O)(=O)O)c(N)ccc23)c(C(=O)O)c1)NC(=O)c1ccc(C2CC2)c(Cc2ccc(F)cc2)n1` is reported as 7 (radioligand binding; relative to: CB1 over CB2 (human)).
The inhibition of `C/C(=N\OCCCN1CCCCC1)c1ccc(C(F)(F)F)cc1` is reported as 27.6% (antagonist, cAMP; 10 µM).
The EC50 ratio of `CCOC(=O)[C@@](CC)(CCCSCCOCCOCCNc1ccc([N+](=O)[O-])c2nonc12)NC(=O)c1ccc(C2CC2)c(Cc2ccc(F)cc2)n1` is reported as greater than 588 (cAMP level; added: forskolin; relative to: CB1 over CB2 (human)).
With `CCc1nnc(-c2c(OC)cc(-c3cnc4cc(-c5cnn(C)c5)ccn34)cc2OC)o1` the inhibition was -2% (specific binding, agonist, radioligand binding; 10 µM; relative to: control specific binding).
`COc1ccc(F)cc1S(=O)(=O)Nc1cnc2c(c1)C(=O)NCCO2` has an inhibition of 7% (ligand displacement, radioligand; 10 µM).
